Results from different studies.
Numbered parts are unrelated; each lists some results of a single study. Substitutions count along the parent as printed.

Set 1 — target: CCNB3, cyclin fold, Cln2 fusion (human); method: yeast growth competition, sequencing; matrix: yeast; setting: weak parent motif; baseline: not given; direction: higher = stronger binding
Starting sequence: CDKN1B docking peptide (human); PSACRNLFGPVDH
`P1D` — result for “normalised enrichment score”: 0.0158.
`R5C` — result for “normalised enrichment score”: 0.0249.
`C4L` — result for “normalised enrichment score”: 0.358.
Under “normalised enrichment score”, `V11W` is recorded as 0.919.
`R5D`: “normalised enrichment score” 0.272.
`G9R`: “normalised enrichment score” -0.442.
For `S2M`, “normalised enrichment score” read 0.154.
`S2A`: “normalised enrichment score” 0.482.
`L7N`: “normalised enrichment score” -0.186.
`C4T` — result for “normalised enrichment score”: 0.121.
Under “normalised enrichment score”, `H13W` is recorded as 0.547.
Under “normalised enrichment score”, `G9E` is recorded as 0.32.
For `H13L`, “normalised enrichment score” read 0.35.
`G9A`: “normalised enrichment score” 0.305.
For `A3P`, “normalised enrichment score” read 0.249.
`S2F`: “normalised enrichment score” 0.23.
For `C4H`, “normalised enrichment score” read 0.295.
`P10F` — result for “normalised enrichment score”: 0.31.
`G9Q`: “normalised enrichment score” 0.441.
`S2N`: “normalised enrichment score” 0.303.
`H13E` — result for “normalised enrichment score”: 0.0977.
`N6W`: “normalised enrichment score” 0.292.
`P10R` — result for “normalised enrichment score”: 0.265.
For `A3W`, “normalised enrichment score” read 0.345.
`V11Y`: “normalised enrichment score” 0.269.

Set 2 — method: protein binding microarray; form: double-stranded DNA, one strand shown; matrix: in vitro; concentration: not given; baseline: not given; direction: higher = stronger binding
Target: Histone acetyltransferase KAT6A, both winged helices, GST fusion (KAT6A, Homo sapiens, UniProt Q92794, residues 1-181)
Setting: 8-mer, flanks averaged, mean of 2 arrays, mostly near background
Target sequence (chain): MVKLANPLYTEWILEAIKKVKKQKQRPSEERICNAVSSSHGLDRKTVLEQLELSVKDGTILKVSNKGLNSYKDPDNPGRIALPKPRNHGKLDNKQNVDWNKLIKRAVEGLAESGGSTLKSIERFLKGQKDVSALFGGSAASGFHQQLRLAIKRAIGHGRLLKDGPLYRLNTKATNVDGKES
The E-score of `AAAAGTGA` is reported as -0.0838.
For `CTCGGGGA`, the E-score was 0.0984.
`GTTACGAA` gave an E-score of 0.0337.
`AGAACGGA` gave an E-score of 0.0883.
`CTTCACGC` gave an E-score of 0.217.
`TGTGATAA` has an E-score of -0.0628.
`AACAATAA` has an E-score of 0.0209.
For `ATTAACCG`, the E-score was 0.213.
For `CGTATATC`, the E-score was 0.0912.
`CGAAGACA` gave an E-score of 0.0996.
With `GGTCTGGA` the E-score was -0.0503.
`GCTGGAGA` gave an E-score of -0.224.
`CTGAGGAC` has an E-score of -0.0518.
`ACACAGTA` gave an E-score of -0.0907.
The E-score of `CGGTCATA` is reported as 0.125.
The E-score of `GGGCGAGA` is reported as 0.00102.
`ACAAACCT` has an E-score of -0.243.
The E-score of `CAGAGCTA` is reported as -0.129.
`CCTATACA` has an E-score of -0.182.
The E-score of `ATAACTAG` is reported as 0.0426.
For `TGTGTTAA`, the E-score was -0.0667.

Set 3 — method: universal PBM; form: double-stranded DNA, one strand shown; matrix: in vitro; concentration: not given; direction: higher = stronger binding
Target: Sal-like protein 4, full length isoform B (SALL4, Homo sapiens, UniProt Q9UJQ4-2, residues 1-616)
Setting: 8-mer, flanks averaged, mean of replicates
`AGATGACC` has an E-score of -0.135.
For `CAAAGTAA`, the E-score was 0.164.
The E-score of `CTGAATAC` is reported as 0.106.
`GCTTTCAC` gave an E-score of -0.0538.
`AGCCGCTC` gave an E-score of -0.207.
The E-score of `GCTTCCCA` is reported as -0.0847.
`AACGTATC` has an E-score of 0.00064.
`CCTCGAAC` gave an E-score of -0.258.
For `ACGTGCTG`, the E-score was -0.147.
With `AGCTTTTC` the E-score was 0.0219.
The E-score of `GACTCTCC` is reported as -0.0638.
With `GCACACCA` the E-score was -0.254.
The E-score of `GCCATCCA` is reported as -0.236.
`AGAATGAT` has an E-score of 0.225.
`CCAGGTAC` gave an E-score of -0.203.
With `CAATCATC` the E-score was 0.0557.
For `ATTGAGGC`, the E-score was 0.0483.

Set 4 — method: RNA Bind-n-Seq; form: RNA; matrix: in vitro; concentration: 365 nM; baseline: no-protein control; direction: higher = stronger binding
Target: RNA binding protein fox-1 homolog 2, RRM domain, GST-SBP tag (RBFOX2, Homo sapiens, UniProt O43251-10, residues 100-194)
Setting: natural RNA segment, single round, ends assumed
Construct (chain): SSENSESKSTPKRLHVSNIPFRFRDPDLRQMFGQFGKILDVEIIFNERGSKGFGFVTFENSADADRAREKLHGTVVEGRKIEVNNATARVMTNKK
Under “RBNS enrichment (R)”, `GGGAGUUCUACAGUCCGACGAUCAAUACCAUUCCAGCCAAAGCUAAAACAGAAAUCCUCUCUAAAAAGAACAAAACAACCGAAACCAAACAAACAAAAAAAUACAAGCAUUCUGUGGUGGGUGGCAUAACAAUUGGAAUUCUCGGGUGCCAA` is recorded as 0.873.
`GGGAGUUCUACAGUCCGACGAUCCCCGACUCCUCAGUGGAGGAGGAGCUGCGGUCCCUCUGGUGUCUGCCAUCCCCCUCCCUCCCUGGGCCCGGCCCUGGACCCGUCAGGUGCCUGUCCCCAGCCCCAACCCCUGGAAUUCUCGGGUGCCAA` — result for “RBNS enrichment (R)”: 0.31.
For `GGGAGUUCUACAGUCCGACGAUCUGCUGACUCUCCUUCAACAUCCUCACCCCCACCCCUGGGCACCAUUUAGGACAAGACUUCCUUAUUUAUCAAUUACUUGAUUUAUCUUCUCAGGACUCAUUGUUCCACCCUGGAAUUCUCGGGUGCCAA`, “RBNS enrichment (R)” read 0.522.
`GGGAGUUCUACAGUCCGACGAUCCACAGGCUACAUGCACACACUGACAACUACCAAUAAACAGACAGGGGAAGGUCUUUCAUCUCAGCCAUUUUCUCUUCCCCCCGCCCCCCCUUAGAUGGAGUCUUGCUCUGUGGAAUUCUCGGGUGCCAA`: “RBNS enrichment (R)” 1.07.
`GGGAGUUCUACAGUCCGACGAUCGUUUCAGUUGUCUUCAGAGACAAAUGUUACUUAAUCAGGAAUACAAAGUACAGAUUUUUUACAUUUUAGAGGAAGAGCACCUUGUAUAGUAAGUCUAAGUCAAGCAAGACUGGAAUUCUCGGGUGCCAA` — result for “RBNS enrichment (R)”: 0.379.
For `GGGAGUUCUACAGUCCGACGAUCUUUGUGGUGUCAGAACUGGAAAAAGCACUUUCCCUUCGGGCAUUUCUGGAAAUGAUUAUUAAUCCACAAAGAAGAACUCUGUAAGCUUUUUCUUGAAUUGUAGCCAGUGAUGGAAUUCUCGGGUGCCAA`, “RBNS enrichment (R)” read 0.588.
`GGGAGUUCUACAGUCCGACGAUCUGCCCCUUGUUGGCCCGAGGAAGGAUGUGGAAAGAGCACCUGGUGGGAUGAAGGUCCAACAGCCUGUGCCUCUCCACUGCUGGCCCUGGAGCCGGCAGCAGUGAGGCAUUUGGAAUUCUCGGGUGCCAA` — result for “RBNS enrichment (R)”: 0.34.
`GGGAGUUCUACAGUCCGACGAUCUUGAAACCUCUCUGAUGAAAGUGAAAAAUGUGGGUAGCUUAUACUUUCAAACUAAUGCCAGUGACUAGAGAGAGGUUUCAUUCAUGAUGUGUAUUUCCAAUUUGGUCUUCUGGAAUUCUCGGGUGCCAA`: “RBNS enrichment (R)” 0.825.

A few entries again (set 1):
For `H13L`, “normalised enrichment score” read 0.35.
`G9A`: “normalised enrichment score” 0.305.
For `A3P`, “normalised enrichment score” read 0.249.
`S2F`: “normalised enrichment score” 0.23.
For `C4H`, “normalised enrichment score” read 0.295.
`P10F` — result for “normalised enrichment score”: 0.31.
`G9Q`: “normalised enrichment score” 0.441.
`S2N`: “normalised enrichment score” 0.303.
`H13E` — result for “normalised enrichment score”: 0.0977.
`N6W`: “normalised enrichment score” 0.292.
`P10R` — result for “normalised enrichment score”: 0.265.
